Assay results of several laboratories.
Every numbered part comes from another study and shows a few of its results, in no order.

Block 1 — target: Sox-I, HMG box (Salpingoeca helianthica); method: Spec-seq; molecule type: double-stranded DNA, one strand shown; sample: in vitro; tested at: not given; setting: whole probe, mean of replicates; baseline: not given; direction: lower = stronger binding
Constant ends, left off below: GAGTCGTCTCGTCAGCAC … TTCCGTAGAGCACTCAGGTC
Target sequence (chain): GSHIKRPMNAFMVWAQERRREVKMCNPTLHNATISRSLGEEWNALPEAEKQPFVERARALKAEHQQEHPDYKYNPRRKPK
Strand	relative binding energy [ln ratio]
CATAT	0.61
TGGCG	0.855
TAGTG	-0.0462
CCACG	0.634
TGCCG	0.651

Block 2 — method: competition protein-binding microarray; molecule type: double-stranded DNA, one strand shown; sample: in vitro; tested at: 2 µM; together with: Pho4 competitor, 0.05 µM; direction: higher = stronger binding; constant ends, left off below: … GTCTTGATTCGCTTGACGCTGCTG
Target: Centromere-binding protein 1, full length, His-tagged (CBF1, Saccharomyces cerevisiae, UniProt P17106, residues 1-351)
Sequence of UniProt P17106 (whole entry, looked up): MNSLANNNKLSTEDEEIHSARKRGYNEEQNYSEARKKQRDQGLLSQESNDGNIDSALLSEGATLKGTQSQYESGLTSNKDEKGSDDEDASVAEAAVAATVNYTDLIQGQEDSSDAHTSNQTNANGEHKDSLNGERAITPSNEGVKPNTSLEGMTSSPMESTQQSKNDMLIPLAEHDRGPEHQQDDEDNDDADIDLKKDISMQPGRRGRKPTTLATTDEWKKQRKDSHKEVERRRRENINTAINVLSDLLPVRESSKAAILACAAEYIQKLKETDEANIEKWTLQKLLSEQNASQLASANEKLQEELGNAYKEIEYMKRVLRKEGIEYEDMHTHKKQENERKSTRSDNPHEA
Setting: whole 60-bp probe, lowest competitor level
Strand	fluorescence intensity [a.u.]
TTGAAAGGCATCGGCCACGTCGTCCCCTTCTCTAAC	62.9
AGCGGGGTAACCCATCACGTGGGTAGCCATTTTTCC	3700
GGGACCTCCAGCAAGCACATGGCATCCTTTTATAAG	128
CATTAGCGTCTCTTTCACGTGCGGTCTGAGAACTAC	638
GCCCGGTCGTTTGGATGCGTGGGTAGTATAGTTTCT	63
AAAGCGGTAATTTGAGCCGTGGGTGCAGATATCTAT	84.4

Block 3 — method: protein-binding microarray; molecule type: double-stranded DNA, one strand shown; sample: in vitro; tested at: 2540 nM top; setting: 60-bp whole probe; together with: salmon DNA 0.4 mg/ml; baseline: random background probes; direction: higher = stronger binding; constant ends, left off below: GCCTAGCAC … GTCTTGATTCGCTTGACGCTGCTG
Target: Interferon regulatory factor 3, full length, phosphomimetic (IRF3, Homo sapiens, UniProt Q14653, residues 1-427, S386D/S396D/S398D/S402D/T404D/S405D)
Residues (chain): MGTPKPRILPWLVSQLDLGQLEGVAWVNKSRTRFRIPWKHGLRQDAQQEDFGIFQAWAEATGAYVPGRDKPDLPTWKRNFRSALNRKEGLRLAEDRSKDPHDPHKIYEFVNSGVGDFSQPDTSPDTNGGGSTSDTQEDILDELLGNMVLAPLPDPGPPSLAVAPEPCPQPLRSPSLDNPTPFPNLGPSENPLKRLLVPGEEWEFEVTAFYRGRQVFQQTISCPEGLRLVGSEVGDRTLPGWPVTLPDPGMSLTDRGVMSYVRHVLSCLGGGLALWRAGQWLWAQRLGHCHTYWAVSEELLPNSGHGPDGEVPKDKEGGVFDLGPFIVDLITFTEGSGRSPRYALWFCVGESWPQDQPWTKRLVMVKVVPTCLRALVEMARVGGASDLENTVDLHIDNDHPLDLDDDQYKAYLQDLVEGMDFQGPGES
Strand	fitted relative affinity
TTAGAACTGAGTATCGTTTAGTGCTAG	0.436 z-score
GAAGGTATCCTTTTCCTGACGTGCTAG	8.22 z-score
GACGGTTTCCTCCTCCTGACGTGCTAG	4.91 z-score
TCAGAATTACCTCTGGAACTGTGCTAG	-0.0217 z-score
CTGTGTTTCCTTGTACGTCGGTGCTAG	3.48 z-score
TTAGGTTTCGGAATGGGTTAGTGCTAG	6.79 z-score
GACGGACTGCCTCTCCTGACGTGCTAG	-0.544 z-score
GACGGTCTGGACTTTCGGGACGTGCTA	0.0838 z-score
GACGGTATCCTGCTCCTGACGTGCTAG	1.38 z-score
GACGTTTTCGACTATCGGGACGTGCTA	2.23 z-score
GACGGTATCGGGTTTCGAGACGTGCTA	2.81 z-score
TCAGGTCTCGGTATCGGTTAGTGCTAG	2.8 z-score

Single results of other studies
Substance	target	assay	system	conditions	scale	quantity	value
PhoQ, residues 284 288 289 292 302 303 TTSMTC	PhoP, residues 12 14 15 18 19 NQFFI (Escherichia coli, UniProt P23836)	Sort-seq, refers to: YFP reporter	E. coli	PhoQ-PhoP variant library, together with: 10 µM Mg2+	baseline: high Mg2+ state, higher = stronger signaling	fold induction	16.6

Excerpt of the above (block 2):
Strand	fluorescence intensity [a.u.]
CATTAGCGTCTCTTTCACGTGCGGTCTGAGAACTAC	638
GCCCGGTCGTTTGGATGCGTGGGTAGTATAGTTTCT	63
AAAGCGGTAATTTGAGCCGTGGGTGCAGATATCTAT	84.4
